Results gathered from unrelated publications.
Protocols differ between the studies behind these lines.
ACKR4: ACKR4 (Homo sapiens, UniProt Q9NPB9)
KDM5A: KDM5A 287-347 (Homo sapiens, UniProt P29375)
B1: CCL21 24-102 (Homo sapiens, UniProt O00585); sequence looked up; chain SDGGAQDCCLKYSQRKIPAKVVRSYRKQEPSLGCSIPAILFLPRKRSQAELCADPKELWVQQLMQHLDKTPSPQKPAQG
B2: ADAR (Homo sapiens, UniProt P55265); sequence looked up; chain MNPRQGYSLSGYYTHPFQGYEHRQLRYQQPGPGSSPSSFLLKQIEFLKGQLPEAPVIGKQTPSLPPSLPGLRPRFPVLLASSTRGRQVDIRGVPRGVHLRSQGLQRGFQHPSPRGRSLPQRGVDCLSSHFQELSIYQDQEQRILKFLEELGEGKATTAHDLSGKLGTPKKEINRVLYSLAKKGKLQKEAGTPPLWKIAVSTQAWNQHSGVVRPDGHSQGAPNSDPSLEPEDRNSTSVSEDLLEPFIAVSAQAWNQHSGVVRPDSHSQGSPNSDPGLEPEDSNSTSALEDPLEFLDMAEIKEKICDYLFNVSDSSALNLAKNIGLTKARDINAVLIDMERQGDVYRQGTTPPIWHLTDKKRERMQIKRNTNSVPETAPAAIPETKRNAEFLTCNIPTSNASNNMVTTEKVENGQEPVIKLENRQEARPEPARLKPPVHYNGPSKAGYVDFENGQWATDDIPDDLNSIRAAPGEFRAIMEMPSFYSHGLPRCSPYKKLTECQLKNPISGLLEYAQFASQTCEFNMIEQSGPPHEPRFKFQVVINGREFPPAEAGSKKVAKQDAAMKAMTILLEEAKAKDSGKSEESSHYSTEKESEKTAESQTPTPSATSFFSGKSPVTTLLECMHKLGNSCEFRLLSKEGPAHEPKFQYCVAVGAQTFPSVSAPSKKVAKQMAAEEAMKALHGEATNSMASDNQPEGMISESLDNLESMMPNKVRKIGELVRYLNTNPVGGLLEYARSHGFAAEFKLVDQSGPPHEPKFVYQAKVGGRWFPAVCAHSKKQGKQEAADAALRVLIGENEKAERMGFTEVTPVTGASLRRTMLLLSRSPEAQPKTLPLTGSTFHDQIAMLSHRCFNTLTNSFQPSLLGRKILAAIIMKKDSEDMGVVVSLGTGNRCVKGDSLSLKGETVNDCHAEIISRRGFIRFLYSELMKYNSQTAKDSIFEPAKGGEKLQIKKTVSFHLYISTAPCGDGALFDKSCSDRAMESTESRHYPVFENPKQGKLRTKVENGEGTIPVESSDIVPTWDGIRLGERLRTMSCSDKILRWNVLGLQGALLTHFLQPIYLKSVTLGYLFSQGHLTRAICCRVTRDGSAFEDGLRHPFIVNHPKVGRVSIYDSKRQSGKTKETSVNWCLADGYDLEILDGTRGTVDGPRNELSRVSKKNIFLLFKKLCSFRYRRDLLRLSYGEAKKAARDYETAKNYFKKGLKDMGYGNWISKPQEEKNFYLCPV
B3: ASB9 35-252 (Homo sapiens, UniProt Q96DX5); sequence looked up; chain SDWSPMHEAAIHGHQLSLRNLISQGWAVNIITADHVSPLHEACLGGHLSCVKILLKHGAQVNGVTADWHTPLFNACVSGSWDCVNLLLQHGASVQPESDLASPIHEAARRGHVECVNSLIAYGGNIDHKISHLGTPLYLACENQQRACVKKLLESGADVNQGKGQDSPLHAVARTASEELACLLMDFGADTQAKNAEGKRPVELVPPESPLAQLFLER
B4: Ric8b 1-483 R71E (Mus musculus, UniProt Q80XE1); chain MDEERALYIVRAGEAGAIERVLRDYSDKHRATFKFESADEDKRKKLCEGIFKVLVKEVPTTCQVSCLEVLEILSRDKKILVPVTTKENMQILLRLAKLHESDDSLEKVSEFPVIVESLKCLCNIVFNSQMAQQLSLELNLAAKLCNLLRKCKDRKFINDIKCFDLRLLFVLSLLHTDIRSQLRYELQGLPLLTQILESAFSIKWTDEYESAIDHNGPPLSPQETDCAIEALKALFNVTVDSWKVHKESDSHQFRVMAAVLRHCLLIVGPTEDKTEELHSNAVNLLSNVPVSCLDVLICPLTHEETAQEAATLDELPSDKTTEKDTALKNSTMVYNGMNMEAIHVLLNFMEKRIDKGSSYREGLTPVLSLLTECSRAHRNIRKFLKDQVLPPLRDVTNRPEVGSTVRNKLVRLMTHVDLGVKQIAAEFLFVLCKERVDSLLKYTGYGNAAGLLAARGLLAGGRGDNWYSEDEDTDTEEYKNAKP
B5: ADA (Homo sapiens, UniProt P00813); chain MAQTPAFDKPKVELHVHLDGSIKPETILYYGRRRGIALPANTAEGLLNVIGMDKPLTLPDFLAKFDYYMPAIAGCREAIKRIAYEFVEMKAKEGVVYVEVRYSPHLLANSKVEPIPWNQAEGDLTPDEVVALVGQGLQEGERDFGVKARSILCCMRHQPNWSPKVVELCKKYQQQTVVAIDLAGDETIPGSSLLPGHVQAYQEAVKSGIHRTVHAGEVGSAEVVKEAVDILKTERLGHGYHTLEDQALYNRLRQENMHFEICPWSSYLTGAWKPDTEHAVIRLKNDQANYSLNTDDPLIFKSTLDTDYQMTKRDMGFTEEEFKRLNINAAKSSFLPEDEKRELLDLLYKAYGMPPSASAGQNL
B6: SEMA4D 22-677 K395D (Homo sapiens, UniProt Q92854); chain MAFAPIPRITWEHREVHLVQFHEPDIYNYSALLLSEDKDTLYIGAREAVFAVNALNISEKQHEVYWKVSEDKKAKCAEKGKSKQTECLNYIRVLQPLSATSLYVCGTNAFQPACDHLNLTSFKFLGKNEDGKGRCPFDPAHSYTSVMVDGELYSGTSYNFLGSEPIISRNSSHSPLRTEYAIPWLNEPSFVFADVIRKSPDSPDGEDDRVYFFFTEVSVEYEFVFRVLIPRIARVCKGDQGGLRTLQKKWTSFLKARLICSRPDSGLVFNVLRDVFVLRSPGLKVPVFYALFTPQLNNVGLSAVCAYNLSTAEEVFSHGKYMQSTTVEQSHTKWVRYNGPVPKPRPGACIDSEARAANYTSSLNLPDKTLQFVDDHPLMDDSVTPIDNRPRLIKKDVNYTQIVVDRTQALDGTVYDVMFVSTDRGALHKAISLEHAVHIIEETQLFQDFEPVQTLLLSSKKGNRFVYAGSNSGVVQAPLAFCGKHGTCEDCVLARDPYCAWSPPTATCVALHQTESPSRGLIQEMSGDASVCPDKSKGSYRQHFFKHGGTAELKCSQKSNLARVFWKFQNGVLKAESPKYGLMGRKNLLIFNLSEGDSGVYQCLSEERVKNKTVFQVVAKHVLEVKVVPKPVVAPTLSVVQTEGSRIATKVLVAST

Molecule | partner | assay | test system | setting | scale | endpoint | value
MQRINKNVVLALLTLTSSAFLLFQLYYYKHYLSARN (FKTN residues 1-36; rhodamine B labelled) | Fktn residues 1-36, fluorescein label | FRET | peptide, liposomes |  |  | molecule per partner | 2
NGF mature (Homo sapiens, UniProt P01138) | NTRK1 extracellular and transmembrane domains (Homo sapiens) | FRET |  | 380 nM | relative to: without ligand, higher = more stable dimer | dimer stability change | -2.63 kcal/mol
Itgam/Itgb2 Mac-1 (Mus musculus) | LL-37 (Homo sapiens) | phagocytosis of latex beads | IC-21 macrophages |  | relative to: untreated beads, higher = more phagocytosis | phagocytosis | 3.5 fold
WSHWSP (THBS1 residues 438-443 (Homo sapiens)) | FN1 intact plasma (Homo sapiens) | competition with coated peptide, radioligand binding | peptide |  |  | IC50 | > 300000 nM
B1 (CCL21 24-102) | ACKR4 | β-arrestin recruitment, agonist, NanoLuc complementation |  |  |  | EC50 | 7 nM
ARSKQTARKS (Histone H3.1 2-11 T3S (Homo sapiens, UniProt P68431); sequence looked up) | KDM5A | competition with labeled peptide, fluorescence polarisation | peptide | together with: H3 peptide |  | Ki | 18800 nM
bradykinin mature (UniProt P01042) | BDKRB2 (Homo sapiens, UniProt P30411) | time-lapse | D54-MG-GFP | 5 h | relative to: control, higher = faster | velocity increase | 29.5%
GOLGA2 GST fusion (sequence not shown) | KPNA2 ΔIBB, NLS-binding domain del IBB | ITC |  | pH 7.4, 20 °C, NaCl 100 mM |  | molecule per partner | 1
B2 (ADAR) | DICER1 (Homo sapiens, UniProt Q9UPY3) | pre-siRNA cleavage |  | single turnover | relative to: Dicer alone, higher = more cleavage | cleavage | 4 fold
FKBP1A (Homo sapiens, UniProt P62942) | RYR1, pS2843 (UniProt P11716) | single-channel gating | planar lipid bilayers |  |  | closed time | 1.4 ms
thyrotropin-releasing hormone, pyroGlu, C-terminal amide (Gallus gallus) | protein (Gallus gallus, UniProt A0A4P9IVJ2) | calcium signaling, NFAT-RE luciferase reporter, agonist | HEK 293 |  |  | EC50 | 1.23 nM
YAEKHRRAKLRLYLEQ (MXD4 D-site peptide (Homo sapiens)) | MAPK8, pT183, pY185 (Homo sapiens, UniProt P45983) | kinase activity, inhibitor, competitive kinase inhibition assay | peptide | together with: ATP 1 mM |  | IC50 | 1100 nM
Prickle2 (Mus musculus, UniProt Q80Y24) | Vangl2 (Mus musculus, UniProt Q91ZD4) | co-IP | HEK293T | 0.5 µg | relative to: control, higher = more E-cadherin | E-cadherin coprecipitated | 0.42 a.u.
PTPRZ1 Fc fusion extracellular C, F, S domains | Nrcam (Mus musculus, UniProt Q810U4) | neurite outgrowth, inhibitor | cerebellar cells | 100 µg/mL, together with: anti-Nr-CAM Fab' 100 µg/mL | higher = more inhibition | neurite outgrowth | > 40%
EPB41 fragment (Homo sapiens) | SLC9A1 residues 506-575 (Rattus norvegicus) | resonant mirror |  | kinetic analysis |  | kon | 43000 M⁻¹ s⁻¹
cyp102A1 flavin reductase domain (Bacillus megaterium) | CYP3A4 del3-12 (Homo sapiens, UniProt P08684) | BMR-dependent reduction | proteoliposomes | mono-exponential, together with: ANF |  | rate constant | 0.00087 s⁻¹
ARVKRTARKS (Histone H3.1 2-11 T3V/Q5R (Homo sapiens, UniProt P68431); sequence looked up) | KDM5A | competition with labeled peptide, fluorescence polarisation | peptide | together with: H3 peptide |  | Ki | 2540 nM
B3 (ASB9 35-252) | CKB 1-381 (UniProt P12277) | SPR |  | pH 8.0, NaCl 200 mM, Langmuir model |  | koff | 0.0035 s⁻¹
RAG2 (Homo sapiens, UniProt P55895) | RAG1 (Homo sapiens, UniProt P15918) | live-cell microscopy | 293T-CJ |  | higher = more cells with puncta | cells with puncta | 13%
B4 (Ric8b 1-483 R71E) | GNAL 1-381 (Homo sapiens, UniProt P38405) | luminescence | RIC-8B knockout HEK293T |  | relative to: wild-type Ric-8B, higher = more folding | sensor folding | 29%
C3a (Homo sapiens, UniProt P01024) | C3AR1 (Homo sapiens, UniProt Q16581) | PWV shift, agonist, label-free photonic crystal biosensor | RBL-2H3, DMEM + 10% FBS | up to 100 nM | higher = larger response | maximal PWV shift | 270 pm
CCL21 (UniProt O00585) | ACKR4 | β-galactosidase activity, agonist, EFC | CHO-CCX-CKR | together with: wild-type CXCL12 |  | pEC50 | 8.7
PAM18 K144R (Saccharomyces cerevisiae) | SSC1 V459F (Saccharomyces cerevisiae) | ATPase activity, activator |  | single turnover | relative to: basal rate, higher = more stimulation | fold stimulation of ATPase | 9.3 fold
B5 (ADA) | bovine serum albumin (Bos taurus, UniProt P02769) | adenosine deamination |  | pH 7.4 | relative to: PBS pH 7.4, higher = more activity | relative enzyme activity | 1.55 fold
GSN A551P (Homo sapiens) | actin, pyrene label (Oryctolagus cuniculus, UniProt P68135) | F-actin severing, fluorimetric pyrene-actin assay |  | 20 °C, without Ca2+, together with: GSN 0.25 µM |  | depolymerization rate | 1.1 h⁻¹
ferredoxin 3 (Magnetococcus marinus) | 2-oxoglutarate:ferredoxin oxidoreductase αβ heterodimer (Magnetococcus marinus) | 2-oxoglutarate formation |  | electron donor, together with: ferredoxin |  | CO2 reduction activity | 8.1 min⁻¹
ATTKYISYQSLKRNSVPCSRRGASYYNCQNGAQANPYSRGCSKIARCRS (RALF1 mature (Arabidopsis thaliana, UniProt Q9SRY3); sequence looked up) | FER (Arabidopsis thaliana, UniProt Q9SCZ4) | AHA2 Ser899 phosphorylation, quantitative phosphoproteomics | peptide, Arabidopsis seedlings, plasma membranes | 1 µM, 5 min | relative to: untreated, higher = more phosphorylation | phosphopeptide abundance | 4.3 fold
NOTCH2NLB (Homo sapiens, UniProt P0DPK3) | NOTCH2 (Homo sapiens, UniProt Q04721) | NOTCH2-GAL4 reporter |  | 24 hours, conditioned medium | relative to: empty-vector medium, higher = more activation | reporter activity | 22%
DNAJB1 (Homo sapiens, UniProt P25685) | HSPA1A (Homo sapiens, UniProt P0DMV8) | luciferase refolding |  | 30 nM, 150 min, 30 °C, together with: Hsp72 3 µM | relative to: non-denatured luciferase, higher = more refolding | relative activity | 70%
B6 (SEMA4D 22-677 K395D) | PLXNB1 20-535 (Homo sapiens, UniProt O43157) | SPR |  |  | relative to: wild type, higher = weaker binding | fold weaker binding | > 200 fold

Some of these lines once more:
Molecule | partner | assay | test system | setting | scale | endpoint | value
ATTKYISYQSLKRNSVPCSRRGASYYNCQNGAQANPYSRGCSKIARCRS (RALF1 mature (Arabidopsis thaliana, UniProt Q9SRY3); sequence looked up) | FER (Arabidopsis thaliana, UniProt Q9SCZ4) | AHA2 Ser899 phosphorylation, quantitative phosphoproteomics | peptide, Arabidopsis seedlings, plasma membranes | 1 µM, 5 min | relative to: untreated, higher = more phosphorylation | phosphopeptide abundance | 4.3 fold
cyp102A1 flavin reductase domain (Bacillus megaterium) | CYP3A4 del3-12 (Homo sapiens, UniProt P08684) | BMR-dependent reduction | proteoliposomes | mono-exponential, together with: ANF |  | rate constant | 0.00087 s⁻¹
MQRINKNVVLALLTLTSSAFLLFQLYYYKHYLSARN (FKTN residues 1-36; rhodamine B labelled) | Fktn residues 1-36, fluorescein label | FRET | peptide, liposomes |  |  | molecule per partner | 2
YAEKHRRAKLRLYLEQ (MXD4 D-site peptide (Homo sapiens)) | MAPK8, pT183, pY185 (Homo sapiens, UniProt P45983) | kinase activity, inhibitor, competitive kinase inhibition assay | peptide | together with: ATP 1 mM |  | IC50 | 1100 nM
ARVKRTARKS (Histone H3.1 2-11 T3V/Q5R (Homo sapiens, UniProt P68431); sequence looked up) | KDM5A | competition with labeled peptide, fluorescence polarisation | peptide | together with: H3 peptide |  | Ki | 2540 nM
